Results collected from several papers.
Parts stem from different laboratories: compare values within a part only.

Series 1
Target: Sal-like protein 4, full length isoform A (SALL4, Homo sapiens, UniProt Q9UJQ4, residues 1-1053)
Chain of UniProt Q9UJQ4 (whole entry, looked up): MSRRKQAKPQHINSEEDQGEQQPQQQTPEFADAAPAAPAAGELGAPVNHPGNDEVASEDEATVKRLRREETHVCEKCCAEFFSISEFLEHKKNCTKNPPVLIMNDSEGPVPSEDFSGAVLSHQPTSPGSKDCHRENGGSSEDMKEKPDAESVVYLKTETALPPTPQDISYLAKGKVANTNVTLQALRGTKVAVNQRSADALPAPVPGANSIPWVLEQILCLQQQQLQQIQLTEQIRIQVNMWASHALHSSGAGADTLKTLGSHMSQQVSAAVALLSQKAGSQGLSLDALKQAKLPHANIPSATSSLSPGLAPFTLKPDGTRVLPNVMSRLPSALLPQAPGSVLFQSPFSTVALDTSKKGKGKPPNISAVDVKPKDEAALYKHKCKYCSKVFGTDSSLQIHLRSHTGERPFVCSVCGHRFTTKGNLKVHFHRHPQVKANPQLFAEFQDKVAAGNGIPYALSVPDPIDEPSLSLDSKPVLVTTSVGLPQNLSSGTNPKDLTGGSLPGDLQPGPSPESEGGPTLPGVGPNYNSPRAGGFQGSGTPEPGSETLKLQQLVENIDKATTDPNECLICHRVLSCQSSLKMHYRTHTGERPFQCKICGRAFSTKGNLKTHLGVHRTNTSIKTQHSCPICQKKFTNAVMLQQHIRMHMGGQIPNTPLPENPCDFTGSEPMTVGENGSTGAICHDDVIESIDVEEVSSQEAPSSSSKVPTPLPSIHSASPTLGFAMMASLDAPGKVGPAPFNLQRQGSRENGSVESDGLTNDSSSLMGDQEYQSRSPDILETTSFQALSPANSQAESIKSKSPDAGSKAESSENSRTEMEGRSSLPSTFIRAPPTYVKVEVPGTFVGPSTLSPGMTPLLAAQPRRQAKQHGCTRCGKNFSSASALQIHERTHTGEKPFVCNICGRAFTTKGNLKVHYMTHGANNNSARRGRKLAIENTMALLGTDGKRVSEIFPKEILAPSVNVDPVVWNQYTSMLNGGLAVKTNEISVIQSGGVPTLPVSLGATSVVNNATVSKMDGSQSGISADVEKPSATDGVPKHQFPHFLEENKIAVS
Method: universal PBM
Form: double-stranded DNA, one strand shown
Sample: in vitro
Tested at: 600 nM
Notes: 8-mer, flanks averaged, mean of replicates
Reading: higher = stronger binding
Oligonucleotide | E-score
CCTTTGGC | -0.0985
ACAGTGCG | -0.165
TTGAAAAA | 0.336
AAATTTTC | 0.281
GACGTCAA | -0.0563
AGCAAACC | 0.0124
GGAACTTA | 0.0706
GTTACCTA | 0.0341
AGACCCAC | -0.16
CGATGACG | -0.19
GAGTCGAA | -0.0522
ACATCGAT | 0.142
CAACTCCA | -0.0957
GCGTGTGA | 0.00958
CGGGGAAA | -0.1
ACAGCGAT | -0.162
AACGTCGG | -0.16
GGTATCAA | -0.0246
ATTCGGTA | 0.217
ATAACCCG | -0.0468
GACTTGTA | 0.247
ACTGTAGC | -0.035
CAGGATAG | -0.016
AACCATGA | 0.103
AACTATCG | 0.0387

Series 2
Target: Fragile X messenger ribonucleoprotein 1, C-terminal low-complexity region (Fmr1, Mus musculus, UniProt P35922)
Method: RNA Bind-n-Seq
Form: RNA
Sample: in vitro
Tested at: 200 nM
Notes: whole 134-nt RNA, ends assumed
With: 150 mM LiCl
Baseline: input library
Reading: higher = stronger binding
Library: 7-deaza-guanosine replaces G
Shared flanks, not repeated: GGGAGUUCUACAGUCCGACGAUC … UGGAAUUCUCGGGUGUCAAGG
Oligonucleotide | log2 enrichment
UCAUGUGGAUGAAGCAGAAAAAGAAGCUCAGAAGAAGCCAGCUGAAUCUCAAAAAAUAGAGCGUGAAGAUGCCCUGGCUUUUAAUUCAGC | -2.91
CAAGUCCUGUGCUACACAUCGUAUGUACCGAAUCGGGAGGGUUUUUGGGAAAGGGAAAGUAUUAUGUUACGCCGUUCGGAUCUGCACUUC | -0.361
UGGGUUCUUAUUUCUAACUUGCAUAUGUUUUGUUUUUCAGAAGGAGUUGAGCCUUCCAAGAAGAGGCAGCUUGUAAGUAGAUGAUUAUUA | -1.93
CUGUGCUACACAUCGUAUGUACCGAAUCGGGUUUUUUUGGGUUUUUUUGGUUUUUUUGGGGAAAGUAUUAUGUUACGCCGUUCGGAUCUG | 0.556
CCUGUGCUACACAUCGUAUGUACCGAAUCGGGGUUUUUGGGGUUUGGGGUUUUUUUGGGGAAAGUAUUAUGUUACGCCGUUCGGAUCUGC | -0.726
CAAGUCCUGUGCUACACAUCGUAUGUACCGAAUCGGAAAGGAAAAAAAGGUUUGGAAAGUAUUAUGUUACGCCGUUCGGAUCUGCACUUC | -2.51
AAGUCCUGUGCUACACAUCGUAUGUACCGAAUCGGGUUUGGGUUUUUGGGAAAGGGAAAGUAUUAUGUUACGCCGUUCGGAUCUGCACUU | -0.888
AGUCCUGUGCUACACAUCGUAUGUACCGAAUCGGGGAGGGGUUUUUGGGGAAAGGGGAAAGUAUUAUGUUACGCCGUUCGGAUCUGCACU | 0.0396

Series 3
Target: Interferon regulatory factor 3, full length, phosphomimetic (IRF3, Homo sapiens, UniProt Q14653, residues 1-427, S386D/S396D/S398D/S402D/T404D/S405D)
Method: protein-binding microarray
Form: double-stranded DNA, one strand shown
Sample: in vitro
Tested at: 2540 nM top
Notes: 60-bp whole probe
With: salmon DNA 0.4 mg/ml
Baseline: random background probes
Reading: higher = stronger binding
Shared flanks, not repeated: GCCTAGCAC … GTCTTGATTCGCTTGACGCTGCTG
Residues (chain): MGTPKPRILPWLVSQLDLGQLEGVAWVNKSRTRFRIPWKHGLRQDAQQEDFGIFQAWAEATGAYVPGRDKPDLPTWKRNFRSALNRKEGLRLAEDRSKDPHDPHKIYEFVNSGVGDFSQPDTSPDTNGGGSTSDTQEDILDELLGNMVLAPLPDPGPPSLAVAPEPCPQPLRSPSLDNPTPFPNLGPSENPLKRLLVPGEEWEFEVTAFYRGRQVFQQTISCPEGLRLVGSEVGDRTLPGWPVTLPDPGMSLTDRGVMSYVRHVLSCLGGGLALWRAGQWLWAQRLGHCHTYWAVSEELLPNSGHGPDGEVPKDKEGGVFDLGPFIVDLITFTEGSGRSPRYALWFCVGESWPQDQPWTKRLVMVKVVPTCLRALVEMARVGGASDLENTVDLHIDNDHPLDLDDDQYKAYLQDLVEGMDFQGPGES
Oligonucleotide | fitted relative affinity
GACGGGTTCGGGTTTCGGGACGTGCTA | 1.46 z-score
TTAGAACTGAGACTGAATTAGTGCTAG | -0.0343 z-score
GACGAACTGAGTATCGAGACGTGCTAG | 0.0494 z-score
TTAGGTATCGATATCGGTTAGTGCTAG | 2.66 z-score
TTAGGTTTCGGGATTCGGTTAGTGCTA | 4.6 z-score
TTCGGTCTCCTTATCCTTTAGTGCTAG | 3.62 z-score
GACGGTTTCCTTTCCCTAACGTGCTAG | 10.4 z-score
TGTGTTATTAAATTTTCACGGGTGCTA | -0.146 z-score
TTAGATATCGGGTTCCGATTAGTGCTA | 2.15 z-score
TCAAATTCTCATTTCCAACTGTGCTAG | 1.74 z-score
GACGGTATCGGACTGGGGACGTGCTAG | 1.54 z-score
GACGGACTGGACTTTCGTGACGTGCTA | -0.485 z-score
GACGGACTGGGGACTGGAGACGTGCTA | -0.785 z-score
GACGGTTTAGGACTGGGGACGTGCTAG | 0.415 z-score
CCTGAAATCTCTTTCCTTACGTGCTAG | 1.75 z-score
TCAATGATCTCTCTGGGACTGTGCTAG | -0.594 z-score
TCATCTCACGCATCTGAAACTGTGCTA | 0.656 z-score
GACCTTCACCTCTCTGTCCCCGTGCTA | 0.0942 z-score
TTAGACCTGGGGTTTCGATTAGTGCTA | 1 z-score

Series 4
Target: RNA binding protein fox-1 homolog 2, RRM domain, GST-SBP tag (RBFOX2, Homo sapiens, UniProt O43251-10, residues 100-194)
Method: RNA Bind-n-Seq
Form: RNA
Sample: in vitro
Tested at: 365 nM
Notes: natural RNA segment, single round, ends assumed
Baseline: no-protein control
Reading: higher = stronger binding
Shared flanks, not repeated: GGGAGUUCUACAGUCCGACGAUC … UGGAAUUCUCGGGUGCCAA
Construct (chain): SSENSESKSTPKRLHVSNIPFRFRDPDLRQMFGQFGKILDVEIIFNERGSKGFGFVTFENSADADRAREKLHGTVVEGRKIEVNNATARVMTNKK
Oligonucleotide | RBNS enrichment (R)
GCCGGGCCGACGCCUCCGAGGUGCCCAGGGAGGCUGAGUGAGGCCACGCAGCCGCCUGCCCGGGAGAACCCUGCCUGAAGCUCUGGAAACUUGUGGGUGGGGCCCAGGGA | 0.277
GAGUCACCCCUACUUCCUGGAUAGUAGGCUUUUUUAGUUGUGUGUUUUGUUUUGAGACAGUGUCUCACUUUGUAGCUGUGGCUAUCCUGGAACUCAAUCAGUAGAUGCCC | 0.72
CGUUUAGUCACCUUGGAGCCCACUCACCUGGUCCUGUUGUUUUACCCCAUCCCUUCUCUCGCGCGCCUAUUGAUUUGUUUCUGAGGAGAGUACACCGUUCACUAUUGUAG | 0.786
CCAGUGACCUGCUAAAAAGUCAACUAGCUCAGAGUUUUGCUGGCCUUUAUGUGAGAAAUCCAAGAAAGUGUUCACUUUUUUGGGAUGCGAGACUCCUUGGUCUCAUUUGC | 0.366
UUGACACGGGUCCCUGUUCGAGAAUUUCCAGUUAGCCCCAGAAGAGACUGGUUCUCCUGACCCCCACCCGAGAGCGAGAGCGCCAAGUGCAGGGCCUUGUGUUGUGUGGU | 0.372
ACUUGACACUUUGGGAGGCCAAGCUGGGCAGAUCACCUGAGGUCAGGAGUUUGAGACCAGCCUGGCCAACAUGGUGAAACCCCAUCUCUACUAAAAAAAAUACAAAAAUU | 0.31
ACCCUACAGUAGAUCCCUCUGCUUGGGUUUCAACUGGAGAUAGUGCCUUCCCCUGAUAACCAUUUUAACCCAUGGCCUUCGUCAAAACCCUUUCAUUUAGCUACUUCAAA | 0.505
CUUUUUUAAACACCUGUUUAUCCCAACCUUUUUGAGCUCAAGCUGUGAUAAAGAAGGGCCCAUCCUAUUUCCCCUCAUCUAGUCCAUUUACGAUUCUCACUGACUCCCCG | 0.656
